Experimental data of several laboratories.
Parts stem from different laboratories: compare values within a part only. “And” joins repeats or separate records; there may be more than shown.
Chain of UniProt Q9NRM7 (whole entry, looked up): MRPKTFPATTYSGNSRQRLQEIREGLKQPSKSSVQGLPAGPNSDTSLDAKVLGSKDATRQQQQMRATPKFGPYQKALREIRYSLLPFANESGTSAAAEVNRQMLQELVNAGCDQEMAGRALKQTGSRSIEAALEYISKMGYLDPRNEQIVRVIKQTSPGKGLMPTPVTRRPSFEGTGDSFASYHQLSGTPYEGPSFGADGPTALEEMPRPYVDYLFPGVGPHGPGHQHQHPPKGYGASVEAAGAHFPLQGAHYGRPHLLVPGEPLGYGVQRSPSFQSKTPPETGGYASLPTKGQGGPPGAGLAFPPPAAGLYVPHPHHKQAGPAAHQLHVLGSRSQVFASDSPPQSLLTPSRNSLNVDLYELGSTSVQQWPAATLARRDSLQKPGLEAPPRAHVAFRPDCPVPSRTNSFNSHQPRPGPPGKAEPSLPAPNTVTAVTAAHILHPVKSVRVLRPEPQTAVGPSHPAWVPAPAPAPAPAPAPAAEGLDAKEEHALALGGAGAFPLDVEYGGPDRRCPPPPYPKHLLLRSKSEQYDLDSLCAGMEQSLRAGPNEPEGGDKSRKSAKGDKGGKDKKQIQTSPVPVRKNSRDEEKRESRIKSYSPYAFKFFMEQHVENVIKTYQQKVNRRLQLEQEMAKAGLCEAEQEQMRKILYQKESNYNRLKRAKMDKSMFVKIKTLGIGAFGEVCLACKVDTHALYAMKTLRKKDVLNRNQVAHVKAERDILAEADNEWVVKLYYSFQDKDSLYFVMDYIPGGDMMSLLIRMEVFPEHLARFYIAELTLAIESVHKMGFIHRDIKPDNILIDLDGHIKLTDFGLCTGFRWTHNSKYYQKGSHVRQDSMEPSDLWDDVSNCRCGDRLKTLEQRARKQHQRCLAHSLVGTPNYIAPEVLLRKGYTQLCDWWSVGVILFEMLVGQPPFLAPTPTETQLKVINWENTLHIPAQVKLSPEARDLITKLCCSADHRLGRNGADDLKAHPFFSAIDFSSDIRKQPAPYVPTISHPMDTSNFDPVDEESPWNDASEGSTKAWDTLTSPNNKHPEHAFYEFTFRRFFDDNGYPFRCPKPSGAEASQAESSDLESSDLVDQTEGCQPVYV
Chain of UniProt P78362 (whole entry, looked up): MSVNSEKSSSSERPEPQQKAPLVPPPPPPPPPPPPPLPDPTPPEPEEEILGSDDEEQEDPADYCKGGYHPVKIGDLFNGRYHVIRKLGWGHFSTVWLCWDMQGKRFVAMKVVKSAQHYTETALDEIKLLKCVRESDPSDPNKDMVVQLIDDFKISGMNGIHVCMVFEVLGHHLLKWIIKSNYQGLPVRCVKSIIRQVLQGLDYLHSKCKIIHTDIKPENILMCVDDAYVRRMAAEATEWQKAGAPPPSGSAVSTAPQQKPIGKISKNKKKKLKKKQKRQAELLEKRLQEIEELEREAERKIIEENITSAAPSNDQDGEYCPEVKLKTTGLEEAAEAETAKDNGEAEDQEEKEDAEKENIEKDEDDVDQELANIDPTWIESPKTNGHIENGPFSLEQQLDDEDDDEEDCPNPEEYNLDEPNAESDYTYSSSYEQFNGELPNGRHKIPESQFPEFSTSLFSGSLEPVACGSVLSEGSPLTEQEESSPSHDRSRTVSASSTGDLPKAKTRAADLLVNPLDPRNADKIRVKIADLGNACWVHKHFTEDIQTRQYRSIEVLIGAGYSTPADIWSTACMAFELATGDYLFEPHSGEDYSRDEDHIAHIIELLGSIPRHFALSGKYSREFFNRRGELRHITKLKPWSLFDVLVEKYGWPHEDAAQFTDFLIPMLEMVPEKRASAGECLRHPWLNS
Chain of UniProt Q38829 (whole entry, looked up): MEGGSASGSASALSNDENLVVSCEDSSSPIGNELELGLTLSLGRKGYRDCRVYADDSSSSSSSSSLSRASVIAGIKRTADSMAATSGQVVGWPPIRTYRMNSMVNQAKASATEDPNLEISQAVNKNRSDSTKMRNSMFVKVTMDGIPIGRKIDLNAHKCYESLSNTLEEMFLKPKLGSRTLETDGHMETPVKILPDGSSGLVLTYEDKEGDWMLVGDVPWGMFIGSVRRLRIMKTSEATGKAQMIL
Chain of UniProt Q16584 (whole entry, looked up): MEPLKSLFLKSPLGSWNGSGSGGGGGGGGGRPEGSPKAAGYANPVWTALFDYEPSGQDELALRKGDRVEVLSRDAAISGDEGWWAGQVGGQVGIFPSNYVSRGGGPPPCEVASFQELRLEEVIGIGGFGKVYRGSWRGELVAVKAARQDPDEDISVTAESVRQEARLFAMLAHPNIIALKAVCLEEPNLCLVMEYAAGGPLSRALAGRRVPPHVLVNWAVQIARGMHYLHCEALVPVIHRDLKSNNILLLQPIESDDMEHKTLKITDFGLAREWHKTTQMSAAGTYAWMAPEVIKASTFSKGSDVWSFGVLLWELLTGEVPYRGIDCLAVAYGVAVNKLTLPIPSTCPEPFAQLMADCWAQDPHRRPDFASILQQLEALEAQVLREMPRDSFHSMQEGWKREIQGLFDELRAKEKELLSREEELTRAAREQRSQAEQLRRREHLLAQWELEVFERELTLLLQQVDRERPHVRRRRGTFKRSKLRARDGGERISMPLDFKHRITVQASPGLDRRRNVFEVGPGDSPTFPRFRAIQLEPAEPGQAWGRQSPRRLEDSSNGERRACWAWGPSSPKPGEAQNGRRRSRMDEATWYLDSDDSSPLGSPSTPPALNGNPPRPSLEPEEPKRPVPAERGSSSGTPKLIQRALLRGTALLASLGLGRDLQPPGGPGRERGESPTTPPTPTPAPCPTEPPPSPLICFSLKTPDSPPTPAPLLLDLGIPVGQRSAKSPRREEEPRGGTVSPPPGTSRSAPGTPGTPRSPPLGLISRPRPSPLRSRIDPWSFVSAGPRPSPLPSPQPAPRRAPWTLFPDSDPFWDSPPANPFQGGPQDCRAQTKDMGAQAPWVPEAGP
Chain of UniProt Q7L7X3 (whole entry, looked up): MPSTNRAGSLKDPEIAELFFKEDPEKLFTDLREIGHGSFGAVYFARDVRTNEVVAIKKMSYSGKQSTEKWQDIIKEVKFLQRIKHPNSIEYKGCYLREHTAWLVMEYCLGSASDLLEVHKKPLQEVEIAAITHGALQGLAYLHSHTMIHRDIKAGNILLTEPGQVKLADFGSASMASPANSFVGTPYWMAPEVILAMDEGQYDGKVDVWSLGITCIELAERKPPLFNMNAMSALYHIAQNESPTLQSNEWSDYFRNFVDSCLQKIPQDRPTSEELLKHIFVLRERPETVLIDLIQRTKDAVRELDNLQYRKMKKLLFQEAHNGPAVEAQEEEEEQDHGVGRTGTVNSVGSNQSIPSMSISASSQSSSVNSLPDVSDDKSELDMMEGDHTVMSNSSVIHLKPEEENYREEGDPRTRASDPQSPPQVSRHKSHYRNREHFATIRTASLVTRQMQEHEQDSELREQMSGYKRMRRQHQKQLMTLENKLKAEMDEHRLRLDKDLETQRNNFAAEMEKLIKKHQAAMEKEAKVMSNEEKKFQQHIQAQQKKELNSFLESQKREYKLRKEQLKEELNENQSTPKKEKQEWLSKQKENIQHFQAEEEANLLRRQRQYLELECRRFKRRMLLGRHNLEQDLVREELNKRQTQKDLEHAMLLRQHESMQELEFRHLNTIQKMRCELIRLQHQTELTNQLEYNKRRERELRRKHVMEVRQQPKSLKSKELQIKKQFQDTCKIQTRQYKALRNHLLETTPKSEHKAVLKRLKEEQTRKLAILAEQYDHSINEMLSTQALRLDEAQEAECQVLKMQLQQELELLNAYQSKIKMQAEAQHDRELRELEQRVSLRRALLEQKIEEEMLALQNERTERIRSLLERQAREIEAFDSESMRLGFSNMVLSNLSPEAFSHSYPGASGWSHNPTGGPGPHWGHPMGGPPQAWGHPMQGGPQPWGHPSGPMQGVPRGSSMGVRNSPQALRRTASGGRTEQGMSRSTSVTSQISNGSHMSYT
Chain of UniProt O24409 (whole entry, looked up): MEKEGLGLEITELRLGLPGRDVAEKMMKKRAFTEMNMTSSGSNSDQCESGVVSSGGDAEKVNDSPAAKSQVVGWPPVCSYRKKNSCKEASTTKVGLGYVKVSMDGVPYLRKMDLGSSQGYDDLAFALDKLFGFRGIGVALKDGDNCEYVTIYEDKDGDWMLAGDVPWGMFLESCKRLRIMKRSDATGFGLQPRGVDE

Block 1 — technique: RNA Bind-n-Seq; molecule type: RNA; sample: in vitro; tested at: 1 µM; setting: whole 134-nt RNA, ends assumed; added: 150 mM KCl; baseline: input library; direction: higher = stronger binding
Target: Ras GTPase-activating protein-binding protein 1, C-terminal RGG region (G3BP1, Homo sapiens, UniProt Q13283)
Chain of UniProt Q13283 (whole entry, looked up): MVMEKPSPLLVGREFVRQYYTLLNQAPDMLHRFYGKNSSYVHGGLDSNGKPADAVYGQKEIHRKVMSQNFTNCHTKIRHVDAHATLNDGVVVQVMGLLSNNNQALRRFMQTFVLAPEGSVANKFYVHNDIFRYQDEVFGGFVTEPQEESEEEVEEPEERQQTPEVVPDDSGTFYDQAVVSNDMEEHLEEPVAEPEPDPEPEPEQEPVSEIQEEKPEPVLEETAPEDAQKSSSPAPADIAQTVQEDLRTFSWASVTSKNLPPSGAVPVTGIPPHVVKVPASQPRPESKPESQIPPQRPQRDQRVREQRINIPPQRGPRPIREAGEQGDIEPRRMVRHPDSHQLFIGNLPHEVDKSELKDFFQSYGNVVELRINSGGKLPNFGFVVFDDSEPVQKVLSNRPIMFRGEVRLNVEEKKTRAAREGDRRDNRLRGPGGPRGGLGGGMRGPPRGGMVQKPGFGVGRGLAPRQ
| Oligonucleotide | log2 enrichment |
| --- | --- |
| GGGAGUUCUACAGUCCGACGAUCUCCUGUGCUACACAUCGUAUGUACCGAAUCGGGGUUUUUUUGGGGUUUUUGGGGUGGGGAAAGUAUUAUGUUACGCCGUUCGGAUCUGCAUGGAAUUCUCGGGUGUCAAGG | 0.978 |
| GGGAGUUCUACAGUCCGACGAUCUCCUGUGCUACACAUCGUAUGUACCGAAUCGGGGCCCCCCGGGGCCCCCCGGCCCCCCGGAAAGUAUUAUGUUACGCCGUUCGGAUCUGCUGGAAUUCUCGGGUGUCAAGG | -0.773 |
| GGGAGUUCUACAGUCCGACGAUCUCUAUGUAGCAUCCAGGUACUACUUCCUUUGGAAUGUCAGUAUUUAAUCUGAGCAAUGCGAUUGUGGGCAGUGGAAUCCUUGGGCUUUCUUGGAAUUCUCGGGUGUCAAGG | -0.463 |
| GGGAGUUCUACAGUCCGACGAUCGUUAAUUCCACCAUCCCCAUCACAGCAGAAGUUUUCAAGAAGCAUGGAGUGUACAACCCCAACAAAAUCUUCGGCGUGACGACCCUGGACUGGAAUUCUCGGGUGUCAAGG | 0.142 |
| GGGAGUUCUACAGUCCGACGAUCAGUCCUGUGCUACACAUCGUAUGUACCGAAUCGGGGAGGGGUUUGGGGUUUUUGGGGAAAGUAUUAUGUUACGCCGUUCGGAUCUGCACUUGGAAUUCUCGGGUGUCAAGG | 2.22 |
| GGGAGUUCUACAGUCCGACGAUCCCUGUGCUACACAUCGUAUGUACCGAAUCGGUUUUUUUGGGGUUUUUUUGGUUUUUUUGGGAAAGUAUUAUGUUACGCCGUUCGGAUCUGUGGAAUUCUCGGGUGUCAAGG | -1.37 |
| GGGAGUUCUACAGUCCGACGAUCAGUCCUGUGCUACACAUCGUAUGUACCGAAUCGGCCCCCGGGCCCCCGGCCCCCGGGAAAGUAUUAUGUUACGCCGUUCGGAUCUGCACUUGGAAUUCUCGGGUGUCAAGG | -1.78 |
| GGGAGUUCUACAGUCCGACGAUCUAACUUUAGAGGAGGAUAUGAUGGAUAUGGCAGUGGACGUGGAUUUGGGGAUGGCUAUAAUGGGUAUGGAGGAGGACCUGGAGGUGGCAAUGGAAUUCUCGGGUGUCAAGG | -1.65 |

Block 2 — read-out: enzyme activity; mode: inhibitor; tested at: 0.5 µM; baseline: control
Target: Death-associated protein kinase 2 (DAPK2, Homo sapiens, UniProt Q9UIK4)
Chain of UniProt Q9UIK4 (whole entry, looked up): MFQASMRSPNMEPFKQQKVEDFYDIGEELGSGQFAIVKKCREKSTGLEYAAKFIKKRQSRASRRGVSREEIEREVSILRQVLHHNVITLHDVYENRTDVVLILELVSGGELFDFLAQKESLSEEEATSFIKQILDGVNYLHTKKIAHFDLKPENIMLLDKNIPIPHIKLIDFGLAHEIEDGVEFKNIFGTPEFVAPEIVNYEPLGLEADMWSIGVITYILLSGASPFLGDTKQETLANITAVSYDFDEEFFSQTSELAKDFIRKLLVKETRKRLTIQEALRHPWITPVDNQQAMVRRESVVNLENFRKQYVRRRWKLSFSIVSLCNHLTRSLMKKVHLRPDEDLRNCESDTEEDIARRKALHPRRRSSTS
| Structure (SMILES) | remaining activity |
| --- | --- |
| O=c1cc(-c2cccc3c2Sc2ccccc2S3)oc(N2CCOCC2)c1 | 98.8% |
| N#C/C(=C\c1ccc(O)c(O)c1)C(=O)NCc1ccccc1 | 98.5% |
| C[C@@H]1CCN(C(=O)CC#N)C[C@@H]1N(C)c1ncnc2[nH]ccc12 | 89.5% |
| O=C(NC(NC(=S)Nc1ccc(F)c([N+](=O)[O-])c1)C(Cl)(Cl)Cl)C(c1ccccc1)c1ccccc1 (stereo not drawn) | 103% |
| CCN(CC)CCNC(=O)c1c(C)[nH]c(/C=C2\C(=O)Nc3ccc(Cl)cc32)c1C | 86.7% |
| COc1cc2ncnc(Nc3cccc(Cl)c3)c2cc1OC | 93.3% |
| O=C1c2ccccc2-c2n[nH]c3cccc1c23 | 109% |
| COc1cc2c(cc1OC)-c1[nH]nc(Nc3cccc(F)c3)c1C2 | 86.7% |
| CCOc1nc(NC(=O)Cc2cc(OC)ccc2OC)cc(N)c1C#N | 104% |
| Cn1nc2c3c(cccc31)C(=O)c1ccccc1-2 | 104% |
| CN([C@@H](Cc1ccc(OS(=O)(=O)c2cccc3cnccc23)cc1)C(=O)N1CCN(c2ccccc2)CC1)S(=O)(=O)c1cccc2cnccc12 | 99.7% |
| N#Cc1c(NC(=O)c2cccc3ccccc23)sc2c1CCCC2 | 105% |
| c1ccc(-c2[nH]ncc2-c2ccnc3ccccc23)nc1 | 102% |
| O=C1C(Cl)=C(N2C(=O)CCC2=O)C(=O)c2ccccc21 | 133% |
| CCN(CC)C(=O)c1ccc(Nc2nc(OCC3CCCCC3)c3[nH]cnc3n2)cc1 | 91.7% |
| CN(C)C[C@H]1CCn2c(c(C3=C(c4cn(C)c5ccccc45)C(=O)NC3=O)c3ccccc32)C1 | 90.4% |
| Nc1cccc(-c2cc3c(Oc4cccc(O)c4)ncnc3[nH]2)c1 | 106% |
| Cc1cc2ncc(-c3ccccc3)nc2cc1C | 92.6% |
| Cc1cn(-c2cc(NC(=O)c3ccc(C)c(Nc4nccc(-c5cccnc5)n4)c3)cc(C(F)(F)F)c2)cn1 | 100% |
| c1ccc(-c2cnc(Nc3ccc(OCCN4CCCC4)cc3)s2)cc1 | 90.3% |
| COc1cc2ncnc(Nc3ccc(O)c(Br)c3)c2cc1OC | 100% |
| O=C(Nc1cccc(Nc2nccc(Nc3cccc(C(F)(F)F)c3)n2)c1)C1CC1 | 120% |

Block 3 — read-out: cell-free assay; technique: competition with immobilised ligand; tested at: 1 µM
Compound: COc1ccc2c(O[C@@H]3C[C@H]4C(=O)N[C@]5(C(=O)O)CC5/C=C\CCCCC[C@H](NC(=O)OC5CCCC5)C(=O)N4C3)cc(-c3csc(NC(=O)C(C)C)n3)nc2c1C (stereo partly drawn)
| target | remaining binding [%] |
| --- | --- |
| SRSF protein kinase 2 (SRPK2, Homo sapiens, UniProt P78362) | 100 |
| Cytoplasmic tyrosine-protein kinase BMX (BMX, Homo sapiens, UniProt P51813) | 57 |
| Serine/threonine-protein kinase TAO1 (TAOK1, Homo sapiens, UniProt Q7L7X3) | 96 |
| Serine/threonine-protein kinase Nek10 (NEK10, Homo sapiens, UniProt Q6ZWH5) | 79 |
| Ephrin type-A receptor 5 (EPHA5, Homo sapiens, UniProt P54756) | 97 |
| Mitogen-activated protein kinase kinase kinase 11 (MAP3K11, Homo sapiens, UniProt Q16584) | 100 |
| Dual specificity mitogen-activated protein kinase kinase 2 (MAP2K2, Homo sapiens, UniProt P36507) | 77 |
| Tyrosine-protein kinase Srms (SRMS, Homo sapiens, UniProt Q9H3Y6) | 98 |
| Tyrosine-protein kinase ABL1, phosphorylated (ABL1, Homo sapiens, UniProt P00519, Q252H) | 80 |
| Tyrosine-protein kinase ABL1, phosphorylated (ABL1, Homo sapiens, UniProt P00519, M351T) | 90 |
| Serine/threonine-protein kinase LATS2 (LATS2, Homo sapiens, UniProt Q9NRM7) | 98 |

Block 4 — Sequence: B1 (IAA6); technique: two-hybrid; baseline: out of 4 tests; direction: higher = firmer interaction
B1: IAA6 (Arabidopsis thaliana, UniProt Q38824); chain MAKEGLALEITELRLGLPGDNYSEISVCGSSKKKKRVLSDMMTSSALDTENENSVVSSVEDESLPVVKSQAVGWPPVCSYRRKKNNEEASKAIGYVKVSMDGVPYMRKIDLGSSNSYINLVTVLENLFGCLGIGVAKEGKKCEYIIIYEDKDRDWMLVGDVPWQMFKESCKRLRIVKRSDATGFGLQQD
| partner | setting | positive tests |
| --- | --- | --- |
| ARF11 500-622 (Arabidopsis thaliana, UniProt Q9ZPY6) |  | 0 |
| ETT (Arabidopsis thaliana, UniProt O23661) |  | 0 |
| IAA26 (Arabidopsis thaliana, UniProt Q8LAL2) |  | 0 |
| ARF14 497-605 (Arabidopsis thaliana, UniProt Q9LQE8) |  | 0 |
| IAA19 (Arabidopsis thaliana, UniProt O24409) |  | 0 |
| IAA14 (Arabidopsis thaliana, UniProt Q38832) |  | 0 |
| IAA15 (Arabidopsis thaliana, UniProt Q9C966) |  | 0 |
| IAA11 (Arabidopsis thaliana, UniProt Q38829) | weak activation fusion | 0 |

Mixed results
| SMILES | tested on | assay | test system | setting | endpoint | result |
| --- | --- | --- | --- | --- | --- | --- |
| C[C@@H]1[C@H](O)[C@@H](C)/C=C/C=C/C=C/C=C/C=C/C=C/C=C/[C@H](O[C@@H]2O[C@H](C)[C@@H](O)[C@H](N)[C@@H]2O)C[C@@H]2O[C@](O)(C[C@@H](O)C[C@@H](O)[C@H](O)CC[C@@H](O)C[C@@H](O)CC(=O)O[C@H]1C)C[C@H](O)[C@H]2C(=O)O | THP-1 | host cell growth |  | 20 µM | inhibition | 103% |
| O=C1CCC(N2Cc3cc(C4CCN(Cc5ccccc5)CC4)ccc3C2=O)C(=O)N1 (stereo not drawn) |  |  | rat Sprague Dawley male, plasma | intravenous, 1.0 mg/kg | Vz | 23.5 L/kg and 11.8 L/kg |

A few entries again (mixed results):
| SMILES | tested on | assay | test system | setting | endpoint | result |
| --- | --- | --- | --- | --- | --- | --- |
| C[C@@H]1[C@H](O)[C@@H](C)/C=C/C=C/C=C/C=C/C=C/C=C/C=C/[C@H](O[C@@H]2O[C@H](C)[C@@H](O)[C@H](N)[C@@H]2O)C[C@@H]2O[C@](O)(C[C@@H](O)C[C@@H](O)[C@H](O)CC[C@@H](O)C[C@@H](O)CC(=O)O[C@H]1C)C[C@H](O)[C@H]2C(=O)O | THP-1 | host cell growth |  | 20 µM | inhibition | 103% |
| O=C1CCC(N2Cc3cc(C4CCN(Cc5ccccc5)CC4)ccc3C2=O)C(=O)N1 (stereo not drawn) |  |  | rat Sprague Dawley male, plasma | intravenous, 1.0 mg/kg | Vz | 23.5 L/kg and 11.8 L/kg |
